Earlier results that unrelated publications cite.
Each line is one published result; not all experiments were run side by side. ± gives the spread as reported.

| Structure (SMILES) | target or system | assay | system | setting | scale | endpoint | result |
| --- | --- | --- | --- | --- | --- | --- | --- |
| CCn1c(=O)c(-c2cc(NC(=O)Nc3ccccc3)c(F)cc2Br)cc2cnc(N)cc21 | – | – | human patients | 150 mg once daily, geometric mean | – | Cmax | 0.804 ± 0.0455 µg/mL |
| COc1ccc(Nc2nc(Nc3ccc(OCC[18F])cc3)ncc2Br)cc1 | – | – | S180 tumour-bearing mice, brain | intravenous, 5 min | – | tissue uptake | 1.2 ± 0.12 %ID/g |
| O=C(O)CCCCC1(N(CC(=O)O)CC(=O)O)CN(CC(=O)O)CCN(CC(=O)O)C1 | – | pH-potentiometry, measured: logK2H | 0.15 M NaCl | 25 °C | – | protonation constant (log) | 6.9 |
| C/C(N)=N/C(=N\S(=O)(=O)c1ccc(C(F)(F)F)cc1)N1C[C@H](c2ccccc2)C(c2ccc(Cl)cc2)=N1 | – | – | mouse | – | – | t1/2 | 4 h |
| FC(F)(F)c1cc2nc(c1)CNCCNCCNC2.[Cu+2] | – | cyclic voltammetry | DMF | scan rate 100 mV/s | – | peak separation ΔE | 182 mV |
| c1ccc2c(C3NCCc4c3[nH]c3ccccc43)c[nH]c2c1 (stereo not shown) | COLO 320 ABCB1-resistant colon | cytotoxicity | – | – | – | IC50 | 13.6 µM |
| Ic1cc2nc(c1)CNCCNCCNC2.[Cu+2] | – | cyclic voltammetry | DMF | scan rate 100 mV/s | baseline: Fc/Fc+ | cathodic peak potential | -907 mV |
| Cc1ccc2c(c1)nc(CCN1C(=O)c3cccc4cccc(c34)C1=O)n2-c1ccncc1 | – | – | Sprague-Dawley rat | oral, 10 mg/kg | – | AUC(0-inf) | 0.07 µg·h/mL |
| Clc1cc2nc(c1)CNCCNCCNC2.[Cu+2] | – | cyclic voltammetry | DMF | scan rate 100 mV/s | baseline: Fc/Fc+ | cathodic peak potential | -979 mV |
| CC1(N(CC(=O)O)CC(=O)O)CN(CC(=O)O)CCN(CC(=O)O)C1 | – | pH-potentiometry, measured: logK4H | 0.15 M NaCl | 25 °C | – | protonation constant (log) | 2.33 |

A few entries again:
| Structure (SMILES) | target or system | assay | system | setting | scale | endpoint | result |
| --- | --- | --- | --- | --- | --- | --- | --- |
| CCn1c(=O)c(-c2cc(NC(=O)Nc3ccccc3)c(F)cc2Br)cc2cnc(N)cc21 | – | – | human patients | 150 mg once daily, geometric mean | – | Cmax | 0.804 ± 0.0455 µg/mL |
